Results collected from several papers.
Compare with care: the assays were run in different laboratories. pIC50: −log10 of the molar value.
Cell line: CCRF-CEM
Effect on: cell growth or viability

SMILES | technique | time | pIC50
O=c1ccn([C@@H]2O[C@H](CSSC[C@H]3O[C@@H](n4ccc(=O)[nH]c4=O)[C@H](O)[C@@H](F)[C@@H]3O)[C@@H](O)[C@H](F)[C@H]2O)c(=O)[nH]1 | – | – | < 3.30
COc1ccc(C[C@H]2COC(=O)[C@@H]2Cc2ccc(OCC(=O)Nc3ccc(C(=O)NO)cc3)c(OC)c2)cc1OC | CCK-8 | 48 h | < 5.30
Cc1cn([C@@H]2O[C@H](CSSc3ccccn3)[C@@H](O)[C@H](F)[C@H]2O)c(=O)[nH]c1=O | – | – | 3.97
S=C(N/N=C/c1ccc(-c2ccccc2)s1)Nc1ccccc1 | – | – | 3.79
C[C@@H]1CCC2[C@]34OO[C@](C)(CC[C@@H]13)O[C@H]4OC[C@]2(C)O (some centres unmarked) | XTT | – | 3.81
COc1ccc(CN2C[C@H](O)[C@H](O)[C@@H]2CO)cc1 | MTS | 72 h | 3.98
COc1ccc(C[C@H]2COC(=O)[C@@H]2Cc2ccc(OCCCCCCCCC(=O)NO)c(OC)c2)cc1OC | CCK-8 | 48 h | 5.68
C[C@H]1C(NCCS)O[C@@H]2O[C@@]3(C)CC[C@H]4[C@H](C)CCC1[C@@]24OO3 (some centres unmarked) | XTT | – | 6.07
Nc1ncnc2c1ncn2[C@@H]1O[C@H](CSSc2ccccn2)[C@@H](O)[C@H](F)[C@H]1O | – | – | 3.64
C=C1C(=O)OC2C1CCC1(C)CC1CCC1(C)OC21 (centres unmarked) | resazurin | – | 5.70
COc1cc(-c2cc(=O)c3c(O)cc(OC4OC(COC5OC(C)C(O)C(O)C5O)C(O)C(O)C4O)cc3o2)ccc1O (centres unmarked) | resazurin | 72 h | 4.29
OC[C@H]1[C@@H](O)[C@@H](O)CN1CCc1ccccc1 | MTS | 72 h | 4.02
O=c1[nH]c(=O)n([C@@H]2O[C@H](CSSC[C@H]3O[C@@H](n4cc(F)c(=O)[nH]c4=O)[C@H](O)[C@@H](F)[C@@H]3O)[C@@H](O)[C@H](F)[C@H]2O)cc1F | – | – | < 3.30
CC1OC(OCC2OC(Oc3cc(O)c4c(=O)cc(-c5ccc(O)c(O)c5)oc4c3)C(O)C(O)C2O)C(O)C(O)C1O (centres unmarked) | resazurin | 72 h | 4.19

A few entries again:
SMILES | technique | time | pIC50
C[C@@H]1CCC2[C@]34OO[C@](C)(CC[C@@H]13)O[C@H]4OC[C@]2(C)O (some centres unmarked) | XTT | – | 3.81
